Assay results of several laboratories.
Protocols differ between the studies behind these lines. Numbers after ± are the reported error.
Cell line: HEK-293T

The IC50 of `O=C([O][Ti+2][O]C(=O)c1ccc([P+]([Au-][Cl])(c2ccccc2)c2ccccc2)cc1)c1ccc([P+]([Au-][Cl])(c2ccccc2)c2ccccc2)cc1.c1cc[cH-]c1.c1cc[cH-]c1` is reported as 39 µM (cell growth or viability, XTT; 24 h).
With `[Cl][Pd-2]1([Cl])[N+](=P(c2ccccc2)(c2ccccc2)C2C=CC=C2)Cc2cccc[n+]21.[Cl][Pd-2]1([Cl])[N+](=P(c2ccccc2)(c2ccccc2)C2C=CC=C2)Cc2cccc[n+]21.[Fe+2]` the IC50 was 5.6 µM (cell growth or viability, MTT; 74 h).
`O=C(Nc1ccc([N+](=O)[O-])cc1Cl)c1cc(F)ccc1O` has an IC50 of 12.1 µM (CCK-8; 24 h).
The IC50 of `COc1ccc(N2C(=O)C=CC2=O)cc1` is reported as greater than 100 µg/mL (cell growth or viability, MTT; 24 h).
With `CC1(C)CCN(Cc2ccc(C(=O)NC[C@]3(O)CCCN(c4cc(NCc5ccccc5)ncn4)C3)c(O)c2)CC1` the IC50 was 15 µM (m6A mRNA level, UPLC-MS/MS; 16 h).
The IC50 of `O=C(N=P12CN3CN(CN(C3)C1)C2)c1cccc[c]1[Au]([Cl])[Cl]` is reported as greater than 125 µM (cell growth or viability, MTT; 24 h).
`[Fe+2].c1ccc(N=P(c2ccccc2)(c2ccccc2)[c-]2cccc2)cc1.c1ccc(N=P(c2ccccc2)(c2ccccc2)[c-]2cccc2)cc1` has an IC50 of 45 µM (cell growth or viability, MTT; 74 h).
For `Cc1ccc(C(C)C)cc1.[Cl-].[Cl-].[Fe+2].[Ru+2].c1cc[cH-]c1.c1ccc(P(=NCc2ccccn2)(c2ccccc2)[c-]2cccc2)cc1`, the IC50 was 114 µM (cell growth or viability, MTT; 24 h).
For `O=C(O)c1ccc([P+]([Au-][Cl])(c2ccccc2)c2ccccc2)cc1`, the IC50 was 31 µM (cell growth or viability, XTT; 72 h).
The IC50 of `Cc1ccc(C(C)C)cc1.O=C(N=P(c1ccccc1)(c1ccccc1)c1ccccc1)c1ccccn1.[Cl-].[Cl-].[Ru+2]` is reported as 2.8 µM (cell growth or viability, MTT; 24 h).
`[Cl][Pd-2]1([Cl])[N+](=P(c2ccccc2)(c2ccccc2)c2ccccc2)Cc2cccc[n+]21` has an IC50 of 45 µM (cell growth or viability, MTT; 74 h).
With `Clc1ccc2ccc3[n+](c2c1)[Ir-3]12([c]4ccccc4-3)([c]3ccccc3-c3ccc4ccc(Cl)cc4[n+]31)[n+]1ccccc1-c1cccc[n+]12.F[P-](F)(F)(F)(F)F` the IC50 was 3.6 ± 0.5 µM (cell growth, MTT; 72 h).
For `Cc1ccc(C(C)C)cc1.[Cl-].[Cl-].[Ru+2].c1ccc(P(=Nc2cccc3cccnc23)(c2ccccc2)c2ccccc2)cc1`, the IC50 was 2.2 µM (cell growth or viability, MTT; 24 h).

Some of these lines once more:
With `CC1(C)CCN(Cc2ccc(C(=O)NC[C@]3(O)CCCN(c4cc(NCc5ccccc5)ncn4)C3)c(O)c2)CC1` the IC50 was 15 µM (m6A mRNA level, UPLC-MS/MS; 16 h).
The IC50 of `O=C(N=P12CN3CN(CN(C3)C1)C2)c1cccc[c]1[Au]([Cl])[Cl]` is reported as greater than 125 µM (cell growth or viability, MTT; 24 h).
